{"data": "Measurements gathered from unrelated publications", "note": "Parts stem from different laboratories: compare values within a part only. Changes are numbered by the printed parent chain."}
{"data": "Set 1", "target": "RNA binding protein fox-1 homolog 2, RRM domain, GST-SBP tag (RBFOX2, Homo sapiens, UniProt O43251-10, residues 100-194)", "technique": "RNA Bind-n-Seq", "molecule type": "RNA", "medium": "in vitro", "concentration": "365 nM", "setting": "natural RNA segment, single round, ends assumed", "reference": "no-protein control", "direction": "higher = stronger binding", "Residues (chain)": "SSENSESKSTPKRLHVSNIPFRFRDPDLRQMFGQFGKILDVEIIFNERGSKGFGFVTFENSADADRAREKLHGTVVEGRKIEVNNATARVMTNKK"}
{"Sequence": "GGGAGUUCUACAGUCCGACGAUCAGAAGAAAGUGUGCCAUGAGAGAAAAACUUAAGGAGUUUUGAAAAGUAAUGCAAAUAACAAAACUGCAACACUAUUUUUAAAAAGAUAAAUAUCUGAGUUAAAAUUACUGUGGAAUUCUCGGGUGCCAA", "RBNS enrichment (R)": 0.975}
{"Sequence": "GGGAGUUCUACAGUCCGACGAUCUAUAGUUUUGAUAACCACAGUUUUAAAUCUUUUAUCUGUGCAUAAUAAAAAGAUAUAUAUCAGUUAUAAUAUGUGUCUUGUUAUCAUUAAAUUCUACCCUAAGGCUCAUGUGGAAUUCUCGGGUGCCAA", "RBNS enrichment (R)": 0.373}
{"Sequence": "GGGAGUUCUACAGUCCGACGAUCGGAGAGGUAUUGUGGAUUCACACGGCAGUCACUUGUUGCCCUCAUGCCCUGUGGUGUUUGGCACGAGGCUCCCAGCCACUUAAACCUGUUCACUUUCCAAAGAAUUCAUCUGGAAUUCUCGGGUGCCAA", "RBNS enrichment (R)": 0.325}
{"Sequence": "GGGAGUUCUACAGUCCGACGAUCUAGCCAGGACUGAGGGGCUGGCCCCAGGACGCUCUCAAGAAAUGGGGCUACUGUGGUUUAGACACUCCUGCUGCUCACAUUGAUGGGUGGCUAUUAAAGUUUCUUCACCCUGGAAUUCUCGGGUGCCAA", "RBNS enrichment (R)": 0.239}
{"Sequence": "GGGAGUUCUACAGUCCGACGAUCGUUCCUUCACUAGGACAGGCACCAUGAGUGUGUUUCUAAGUUCCAGAGUCUGUGGGGAGGAUGGUGGGUGGGCAGCCAGCCCUGUUGCUAUGUUGCUUCUUCCACACCCCUGGAAUUCUCGGGUGCCAA", "RBNS enrichment (R)": 0.469}
{"Sequence": "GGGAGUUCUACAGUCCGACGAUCCAUAGUGCUUUGCACAUAGUCGUCACUCAGUGUUUGUUAAUAAAGCUACUAGUGUCAUUAAAACUCUUAGACAGUAUGUGGAUUUUUGUUUUCAGGUUUUUUAAAAAAUUUGGAAUUCUCGGGUGCCAA", "RBNS enrichment (R)": 0.452}
{"Sequence": "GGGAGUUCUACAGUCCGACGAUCUUAUUAUGAUGUAAUACCAGUAGAAUAUUUAAAAGGCACACCACAUCUGAAUAAUCAAUGUAAAUAUUUUCUUUCAAAGUUGUAAGUUUUCAUAUCAUGUGCUGUAAAGUUGGAAUUCUCGGGUGCCAA", "RBNS enrichment (R)": 0.559}
{"Sequence": "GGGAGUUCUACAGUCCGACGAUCCCUGGGUGAUGCAUUUGCUCUUCCUGUUUGUGCCAAUGUAUCAAUGUAGAGUUGCUCUGUUUUCUUCAACUGUAUUUAUUGCUGCAUUUCUCAGCAUAAACUUAUCCCAUUGGAAUUCUCGGGUGCCAA", "RBNS enrichment (R)": 0.688}
{"data": "Set 2", "target": "Ras GTPase-activating protein-binding protein 1, C-terminal RGG region (G3BP1, Homo sapiens, UniProt Q13283)", "technique": "RNA Bind-n-Seq", "molecule type": "RNA", "medium": "in vitro", "concentration": "1 µM", "setting": "whole 134-nt RNA, ends assumed", "added": "150 mM KCl", "reference": "input library", "direction": "higher = stronger binding", "chain of UniProt Q13283 (whole entry, looked up)": "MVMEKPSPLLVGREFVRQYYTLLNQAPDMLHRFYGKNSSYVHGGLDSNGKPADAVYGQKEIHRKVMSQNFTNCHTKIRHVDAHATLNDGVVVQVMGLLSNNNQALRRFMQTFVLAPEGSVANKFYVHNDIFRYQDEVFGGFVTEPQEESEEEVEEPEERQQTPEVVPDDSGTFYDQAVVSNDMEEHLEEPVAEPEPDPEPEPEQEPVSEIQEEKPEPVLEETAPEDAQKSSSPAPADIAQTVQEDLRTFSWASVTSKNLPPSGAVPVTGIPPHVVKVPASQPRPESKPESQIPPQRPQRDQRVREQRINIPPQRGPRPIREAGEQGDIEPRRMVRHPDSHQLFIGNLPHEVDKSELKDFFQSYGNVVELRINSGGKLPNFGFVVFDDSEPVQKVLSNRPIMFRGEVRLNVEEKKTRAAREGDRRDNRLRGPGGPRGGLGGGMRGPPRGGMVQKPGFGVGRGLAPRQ"}
{"Sequence": "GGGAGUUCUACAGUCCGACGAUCCCUCAAGUCCUGUGCUACACAUCGUAUGUACCGAAUCGGUGGUGGAAAAAGGAAAGUAUUAUGUUACGCCGUUCGGAUCUGCACUUCCAGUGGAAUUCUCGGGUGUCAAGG", "log2 enrichment": -0.579}
{"Sequence": "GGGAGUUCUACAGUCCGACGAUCUCCUCAAGUCCUGUGCUACACAUCGUAUGUACCGAAUCGGAGGAGGGAGGGAAAGUAUUAUGUUACGCCGUUCGGAUCUGCACUUCCAGCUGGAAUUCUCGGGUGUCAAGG", "log2 enrichment": -0.746}
{"Sequence": "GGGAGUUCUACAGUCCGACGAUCUCCUGUGCUACACAUCGUAUGUACCGAAUCGGGUUUUUUGGGUUUUUUGGGGUUUUUUGGAAAGUAUUAUGUUACGCCGUUCGGAUCUGCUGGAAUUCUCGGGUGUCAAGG", "log2 enrichment": -0.263}
{"Sequence": "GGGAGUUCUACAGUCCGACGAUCCUGUGCUACACAUCGUAUGUACCGAAUCGGGGCCCCCCCGGGCCCCCCCGGCCCCCCCGGGAAAGUAUUAUGUUACGCCGUUCGGAUCUGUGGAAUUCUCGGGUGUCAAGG", "log2 enrichment": -1.74}
{"Sequence": "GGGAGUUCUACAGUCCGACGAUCUGUCCCUGGUGGCAUGCGGGGAGGAAGAGGUGGCCUCAUGGAUCGUGGUGGUCCCGGUGGAAUGUUCAGAGGUGGCCGUGGUGGAGACAGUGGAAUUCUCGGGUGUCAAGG", "log2 enrichment": 2.34}
{"Sequence": "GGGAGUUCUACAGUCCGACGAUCUAACUUUAGAGGAGGAUCUGAUGGAUAUGGCAGUGUACGUGGAUUUGGGGAUGGCUAUAAUGGGUAUGGAGGAGGACCUGGAGGUGGCAAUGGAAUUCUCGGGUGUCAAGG", "log2 enrichment": -1.19}
{"Sequence": "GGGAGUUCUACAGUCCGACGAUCCAAGUCCUGUGCUACACAUCGUAUGUACCGAAUCGGUUUUUGGAGGUUUUUUUGGAAAGUAUUAUGUUACGCCGUUCGGAUCUGCACUUCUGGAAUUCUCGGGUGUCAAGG", "log2 enrichment": -1.53}
{"Sequence": "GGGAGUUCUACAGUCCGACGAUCUUGACGAGGCCGGCCCGGGAGAUGAGACCACCGGCCAGGAAGUCAUUGUCAUUCAGGACACGGGCUUUUCUGUGAAGAUCCUCGCCCCUGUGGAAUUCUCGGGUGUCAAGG", "log2 enrichment": -2.08}
{"Sequence": "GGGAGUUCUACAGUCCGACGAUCCUGUGCUACACAUCGUAUGUACCGAAUCGGAAAAAAAGGGGAAAAAAAGGGGAAAAAAAGGAAAGUAUUAUGUUACGCCGUUCGGAUCUGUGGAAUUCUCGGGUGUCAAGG", "log2 enrichment": -1.26}
{"data": "Set 3", "target": "CCNA1, cyclin fold, Cln2 fusion (human)", "technique": "yeast growth competition, sequencing", "medium": "yeast", "setting": "weak parent motif", "reference": "not given", "direction": "higher = stronger binding", "starting sequence": "SGO1 docking peptide (human); PLAKRALKYTDEK"}
{"Substitution": "ALAKRALKYTDEK [P1A]", "normalised enrichment score": 0.382}
{"Substitution": "PAAKRALKYTDEK [L2A]", "normalised enrichment score": 0.703}
{"Substitution": "PLAKRALKYTDAK [E12A]", "normalised enrichment score": 0.359}
{"Substitution": "PLAKAALKYTDEK [R5A]", "normalised enrichment score": -0.0874}
{"Substitution": "PLAKRALKYTDEA [K13A]", "normalised enrichment score": 0.414}
{"Substitution": "PLAARALKYTDEK [K4A]", "normalised enrichment score": 0.41}
{"data": "Set 4", "target": "ABI1, truncated, D143A, DHFR fusion (Arabidopsis thaliana)", "technique": "DHFR PCA, deep sequencing", "medium": "yeast", "setting": "methotrexate growth selection, single substitutions", "added": "(+)-ABA 0.39 µM", "reference": "wild-type fitted maximum", "direction": "higher = stronger binding", "starting sequence": "PYL1, truncated, DHFR fusion (Arabidopsis thaliana); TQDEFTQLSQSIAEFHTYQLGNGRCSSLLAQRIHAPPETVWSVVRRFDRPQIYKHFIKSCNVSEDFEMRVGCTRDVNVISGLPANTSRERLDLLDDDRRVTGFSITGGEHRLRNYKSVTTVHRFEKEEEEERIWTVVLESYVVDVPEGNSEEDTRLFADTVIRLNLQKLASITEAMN; partner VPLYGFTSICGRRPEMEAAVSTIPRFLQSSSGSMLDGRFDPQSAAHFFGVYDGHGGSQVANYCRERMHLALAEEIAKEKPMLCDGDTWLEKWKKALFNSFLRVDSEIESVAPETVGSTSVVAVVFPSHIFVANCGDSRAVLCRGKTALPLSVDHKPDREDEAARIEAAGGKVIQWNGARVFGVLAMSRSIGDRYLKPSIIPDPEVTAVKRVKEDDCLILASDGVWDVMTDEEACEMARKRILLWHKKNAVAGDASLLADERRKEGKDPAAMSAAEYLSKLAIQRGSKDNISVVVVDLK"}
{"Substitution": "N61W", "relative binding score [%]": 28.2}
{"Substitution": "E38V", "relative binding score [%]": -2.71}
{"Substitution": "V137C", "relative binding score [%]": 18.7}
{"Substitution": "V142G", "relative binding score [%]": -5.75}
{"Substitution": "V44L", "relative binding score [%]": 22.6}
{"Substitution": "R32E", "relative binding score [%]": 40.7}
{"Substitution": "F47P", "relative binding score [%]": -0.163}
{"Substitution": "R88H", "relative binding score [%]": 62.8}
{"Substitution": "K58H", "relative binding score [%]": 12.8}
{"Substitution": "E125P", "relative binding score [%]": 48.9}
{"Substitution": "V76F", "relative binding score [%]": -8.45}
{"Substitution": "E130I", "relative binding score [%]": 30.6}
{"Substitution": "D96W", "relative binding score [%]": -9.93}
{"Substitution": "Y115Q", "relative binding score [%]": -18.7}
{"Substitution": "N114Y", "relative binding score [%]": 4.57}
{"Substitution": "H122P", "relative binding score [%]": -7.44}
{"Substitution": "V76M", "relative binding score [%]": 6.2}
{"Substitution": "R113C", "relative binding score [%]": 9.89}
{"data": "Mixed results"}
{"Molecule": "PhoQ, residues 284 288 289 292 302 303 TLASMF", "target": "PhoP, residues 12 14 15 18 19 NQAHL (Escherichia coli, UniProt P23836)", "assay": "Sort-seq, refers to: YFP reporter", "system": "E. coli", "setting": "PhoQ-PhoP variant library, added: 10 µM Mg2+", "how to read": "reference: high Mg2+ state, higher = stronger signaling", "endpoint": "fold induction", "result": 5.71}
